# Measured values collected from several papers.
# Compare with care: the assays were run in different laboratories.
# Cell line: MCF7
Structure (SMILES),read-out,method,time,IC50
C1N2CN3CN1CP(C2)C3.CC(C)OC(=O)C(n1cccn1)n1cccn1.F[P-](F)(F)(F)(F)F.[Cu+],cell growth or viability,MTT,72 h,20.7 µM
O=C(O)[c-]1cccc1.O=C(Oc1ccc(-n2cccc2)cc1)[c-]1cccc1.[Fe+2],cell growth or viability,MTT,,57 µM
COC(=O)C1CN1S(=O)(=O)c1ccc(N)cc1 (centres unmarked),cell growth or viability,MTT,48 h,137 µM
CC(C)C[C@H](NC(=O)[C@H](C)NC(=O)[C@H](CCCCN)NC(=O)[C@H](CC(C)C)NC(=O)[C@H](C)NC(=O)[C@H](CC(C)C)NC(=O)[C@H](CCCCN)NC(=O)[C@H](CC(C)C)NC(=O)[C@H](C)NC(=O)[C@H](CC(C)C)NC(=O)[C@@H](N)CCCCN)C(=O)N[C@@H](CCCCN)C(=O)N[C@@H](C)C(=O)N[C@@H](C)C(=O)N[C@@H](CC(C)C)C(=O)N[C@@H](CCCCN)C(=O)N[C@@H](CC(C)C)C(=O)N[C@@H](C)C(N)=O,cytotoxicity,,,1.8 µM
Cc1nn(-c2ccccc2)c(O)c1C(c1cccs1)c1c(C)nn(-c2ccccc2)c1O,cell growth or viability,MTT,48 h,28.2 µM
COc1cc(/C=C(\C#N)C(=O)Nc2nnc(C(F)(F)F)s2)ccc1OC(=O)N1CCN(C(=O)CCCC(=O)NCCCC[C@@H]2NC(=O)[C@@H](Cc3ccc(O)cc3)NC(=O)[C@H](CC(=O)O)NC(=O)CNC(=O)[C@H](CCCNC(=N)N)NC2=O)CC1,cytotoxicity,MTT,48 h,> 100 µM
C=CC12COC(=O)C(=C)C1C(O)C1C(=C)C(=O)OC1C2 (centres unmarked),cell growth or viability,MTT,72 h,35 µM
C/C=C/C=C/C/C=C/CCCCCCCc1cccc(O)c1O,cell growth or viability,MTT,48 h,3.42 µg/mL
CC(C)=CCC[C@@](C)(O)[C@H]1CC[C@]2(C)[C@@H]1CC[C@@H]1[C@@]3(C)CCC(=O)C(C)(C)[C@@H]3CC[C@]12C,cell growth or viability,SRB,,29.2 µM
Cc1nn(-c2ccccc2)c(O)c1C(c1ccc(N(C)C)cc1)c1c(C)nn(-c2ccccc2)c1O,cell growth or viability,MTT,48 h,32.6 µM
CC(C)C[C@H](NC(=O)[C@H](C)NC(=O)[C@H](CCCCN)NC(=O)[C@H](C)NC(=O)[C@H](C)NC(=O)[C@@H]1CSCc2ccccc2CSC[C@H](NC(=O)[C@H](CCCCN)NC(=O)[C@H](Cc2ccccc2)NC(=O)CN)C(=O)N[C@@H](CC(C)C)C(=O)N[C@@H](CC(C)C)C(=O)N[C@@H](CCCCN)C(=O)N1)C(=O)N[C@H](C(=O)N[C@@H](CCCCN)C(=O)N[C@H](C(=O)N[C@H](C(=O)N[C@@H](CC(C)C)C(=O)N[C@@H](Cc1ccccc1)C(N)=O)C(C)C)[C@@H](C)O)C(C)C,cell growth or viability,CCK-8,,12 µM
Cc1nn(-c2ccccc2)c(O)c1C(c1ccccc1[N+](=O)[O-])c1c(C)nn(-c2ccccc2)c1O,cell growth or viability,MTT,48 h,35.8 µM
[N-]=[N+]=NCCN1C(=O)c2cccc3cccc(c23)C1=O,cell growth or viability,MTT,24 h,> 100 µM
C[C@H](N)[C@@H](CCCCCCCCCCCCCCC(=O)CCCCCCC[C@@H](O)[C@@H](C)N)O[C@@H]1O[C@H](CO)[C@H](O)[C@H](O)[C@H]1O,cell growth or viability,resazurin,96 h,6.91 µM
O=C1N[C@H]2[C@H](CS[C@H]2CCCCC(=O)OCc2ccnc(-c3cc(COC(=O)CCCC[C@@H]4SC[C@@H]5NC(=O)N[C@@H]54)ccn3)c2)N1.O=S(=O)([O-])C(F)(F)F.[Ru+2].c1cc[cH-]c1.c1ccc(P(c2ccccc2)c2ccccc2)cc1,cell growth or viability,MTT,24 h,31.5 µM
CC1OC(OC2CCC3(C)C(CCC4C3CCC3(C)C(C5=CC(=O)OC5)CCC43O)C2)C(O)C(O)C1OC1OC(CO)C(O)C(O)C1O (centres unmarked),cell growth or viability,MTT,48 h,0.12 µM
C=CC[P](c1ccccc1)(c1ccccc1)[Pt]([Cl])([Cl])[P](CC=C)(c1ccccc1)c1ccccc1,cell growth or viability,MTT,,19 µM
CC[C@H](C)[C@@H]([C@@H](CC(=O)N1CCC[C@H]1[C@H](OC)[C@@H](C)C(=O)N[C@H](C)[C@@H](O)c1ccccc1)OC)N(C)C(=O)[C@@H](NC(=O)[C@H](C(C)C)N(C)C(=O)OCc1ccc(NC(=O)[C@H](CCCNC(N)=O)NC(=O)[C@@H](NC(=O)CCCc2cn(CC(=O)NCCCC[C@H]3NC(=O)[C@H](CCCCN)NC(=O)[C@H](CCCNC(N)=O)NC(=O)[C@H](Cc4ccc(O)cc4)NC(=O)[C@@H](NC(=O)[C@H](Cc4ccc5ccccc5c4)NC(=O)[C@H](CCCNC(=N)N)NC(=O)[C@@H](N)CCCNC(=N)N)CSSC[C@@H](C(=O)N[C@@H](CCCNC(=N)N)C(N)=O)NC(=O)[C@H](CCCNC(N)=O)NC(=O)[C@H](CCCNC(=N)N)NC(=O)[C@H](Cc4ccc(O)cc4)NC(=O)[C@@H]4CCCN4C3=O)nn2)C(C)C)cc1)C(C)C,cell growth or viability,CCK-8,48 h,3.98 µM
Cc1cc(C)c(N2CCN(c3c(C)cc(C)cc3C)C2=[Se])c(C)c1.[Cl][Au],cell growth or viability,MTT,72 h,0.7 µM
COC(=O)C1CN1S(=O)(=O)c1ccccc1 (centres unmarked),cell growth or viability,MTT,48 h,40 µM
C=CC[P](c1ccccc1)(c1ccccc1)[Pt]([S]c1nc2ccccc2s1)([S]c1nc2ccccc2s1)[P](CC=C)(c1ccccc1)c1ccccc1,cell growth or viability,MTT,,34.6 µM
CCc1ccc(C(c2c(C)nn(-c3ccccc3)c2O)c2c(C)nn(-c3ccccc3)c2O)cc1,cell growth or viability,MTT,48 h,38.4 µM
CC(C)C[C@H](NC(=O)[C@H](CC(C)C)NC(=O)[C@H](CC(=O)O)NC(=O)[C@H](CCCCN)NC(=O)[C@H](Cc1ccccc1)NC(=O)CN)C(=O)N[C@@H](CCCCN)C(=O)N[C@H]1CSCc2cccc(c2)CSC[C@@H](C(=O)N[C@@H](CC(C)C)C(=O)N[C@H](C(=O)N[C@@H](CCCCN)C(=O)N[C@H](C(=O)N[C@H](C(=O)N[C@@H](CC(C)C)C(=O)N[C@@H](Cc2ccccc2)C(N)=O)C(C)C)[C@@H](C)O)C(C)C)NC(=O)[C@H](CCCCN)NC(=O)[C@H](C)NC(=O)[C@H](C)NC1=O,cell growth or viability,CCK-8,,4.9 µM
CC(=O)O[C@H]1C(=O)[C@@]2(C)[C@H]([C@H](OC(=O)c3ccccc3)[C@]3(O)C[C@H](OC(=O)[C@H](OC(=O)CCC(=O)NCC(=O)NCC(=O)N[C@@H](CCC(=O)O)C(=O)N4C[C@H](O)C[C@H]4C(=O)NCC(=O)N[C@@H](CCC(=O)O)C(=O)N4C[C@H](O)C[C@H]4C(=O)NCC(=O)N[C@@H](CCC(=O)O)C(=O)N4C[C@H](O)C[C@H]4C(=O)NCC(=O)N[C@@H](CCC(=O)O)C(=O)N4C[C@H](O)C[C@H]4C(=O)NCC(=O)N[C@@H](CCC(=O)O)C(=O)N4C[C@H](O)C[C@H]4C(=O)NCC(=O)N4CCC[C@H]4C(=O)N[C@@H](CCCNC(=N)N)C(=O)NCC(=O)N4CCC[C@H]4C(=O)N[C@@H](CCCNC(=N)N)C(=O)NCC(=O)N4CCC[C@H]4C(=O)N[C@@H](CCCNC(=N)N)C(=O)NCC(=O)N4CCC[C@H]4C(=O)N[C@@H](CCCNC(=N)N)C(=O)NCC(=O)N4CCC[C@H]4C(=O)N[C@@H](CCCNC(=N)N)C(=O)NCC(=O)N[C@@H](CCCNC(=N)N)C(=O)N[C@@H](CCCNC(=N)N)C(=O)NCC(=O)N[C@@H](CCCNC(=N)N)C(=O)N[C@@H](CCCNC(=N)N)C(=O)NCC(N)=O)[C@@H](NC(=O)c4ccccc4)c4ccccc4)C(C)=C1C3(C)C)[C@]1(OC(C)=O)CO[C@@H]1C[C@@H]2O,cell growth or viability,ATP luminescence,,0.198 µM
Cc1cc(C)c(-n2ccn(-c3c(C)cc(C)cc3C)c2=[Se])c(C)c1.[Cl][Ag],cell growth or viability,MTT,72 h,2.8 µM
C[C@H]1O[C@@H](O[C@H]2CC[C@@]3(C)[C@H](CC[C@@H]4[C@@H]3C[C@@H](O)[C@]3(C)[C@@H](C5=CC(=O)OC5)[C@@H](O)C[C@]43O)C2)C[C@H](O)[C@@H]1O,cell growth or viability,MTT,48 h,1.14 µM
CC(=O)c1nn(-c2ccc(Cl)cc2)c2nc3nc(-c4ccccc4)cc(-c4ccc5ccccc5n4)c3c(=O)n12,cell growth or viability,MTT,48 h,10.2 µM
CC(C)C[C@H](NC(=O)[C@H](C)NC(=O)[C@H](CCCCN)NC(=O)[C@H](C)NC(=O)[C@H](C)NC(=O)CNC(=O)[C@H](CCCCN)NC(=O)[C@H](CC(C)C)NC(=O)[C@H](CC(C)C)NC(=O)[C@H](CC(=O)O)NC(=O)[C@H](CCCCN)NC(=O)[C@H](Cc1ccccc1)NC(=O)CN)C(=O)N[C@H](C(=O)N[C@@H](CCCCN)C(=O)N[C@H](C(=O)N[C@H](C(=O)N[C@@H](CC(C)C)C(=O)N[C@@H](Cc1ccccc1)C(N)=O)C(C)C)[C@@H](C)O)C(C)C,cell growth or viability,CCK-8,,9.33 µM
CC(C)[C@H](NC(=O)[C@H](C(C)C)N(C)C)C(=O)N(C)[C@H](C(=O)N1CCC[C@H]1C(=O)N1CCC[C@H]1C(=O)O)C(C)C,cell growth or viability,,48 h,0.96 µM

# Repeated from above:
Structure (SMILES),read-out,method,time,IC50
Cc1nn(-c2ccccc2)c(O)c1C(c1ccc(N(C)C)cc1)c1c(C)nn(-c2ccccc2)c1O,cell growth or viability,MTT,48 h,32.6 µM
